Experimental data of several laboratories.
Numbered parts are unrelated; each lists some results of a single study. Values joined by “and” are separate records of one study, mostly repeats; a detail may differ.
UniProt O94804, sequence (whole entry, looked up): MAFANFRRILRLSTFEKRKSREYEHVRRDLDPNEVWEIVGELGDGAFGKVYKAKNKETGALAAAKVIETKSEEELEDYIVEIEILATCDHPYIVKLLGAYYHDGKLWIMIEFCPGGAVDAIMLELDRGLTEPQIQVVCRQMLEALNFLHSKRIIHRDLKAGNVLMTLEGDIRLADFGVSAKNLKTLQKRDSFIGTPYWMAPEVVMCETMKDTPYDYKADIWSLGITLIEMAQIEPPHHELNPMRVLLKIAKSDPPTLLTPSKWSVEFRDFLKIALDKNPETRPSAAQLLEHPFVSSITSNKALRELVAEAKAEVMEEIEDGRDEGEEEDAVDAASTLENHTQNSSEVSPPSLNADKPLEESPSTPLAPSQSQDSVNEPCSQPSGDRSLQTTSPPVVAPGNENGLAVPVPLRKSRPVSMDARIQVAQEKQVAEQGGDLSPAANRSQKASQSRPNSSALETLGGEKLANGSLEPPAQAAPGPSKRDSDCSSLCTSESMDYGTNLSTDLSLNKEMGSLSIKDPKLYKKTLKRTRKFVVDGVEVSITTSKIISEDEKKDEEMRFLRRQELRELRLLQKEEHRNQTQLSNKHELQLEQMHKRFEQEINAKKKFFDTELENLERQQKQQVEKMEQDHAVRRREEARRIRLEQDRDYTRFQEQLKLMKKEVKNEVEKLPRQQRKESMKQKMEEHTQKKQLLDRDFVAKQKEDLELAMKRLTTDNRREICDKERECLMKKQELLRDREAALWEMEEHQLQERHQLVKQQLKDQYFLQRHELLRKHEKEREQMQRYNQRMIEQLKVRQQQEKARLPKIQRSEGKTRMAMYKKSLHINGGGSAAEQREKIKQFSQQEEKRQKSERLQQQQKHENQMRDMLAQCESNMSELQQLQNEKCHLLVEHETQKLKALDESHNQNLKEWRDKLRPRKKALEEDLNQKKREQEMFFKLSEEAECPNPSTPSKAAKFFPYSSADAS
UniProt O14920, sequence (whole entry, looked up): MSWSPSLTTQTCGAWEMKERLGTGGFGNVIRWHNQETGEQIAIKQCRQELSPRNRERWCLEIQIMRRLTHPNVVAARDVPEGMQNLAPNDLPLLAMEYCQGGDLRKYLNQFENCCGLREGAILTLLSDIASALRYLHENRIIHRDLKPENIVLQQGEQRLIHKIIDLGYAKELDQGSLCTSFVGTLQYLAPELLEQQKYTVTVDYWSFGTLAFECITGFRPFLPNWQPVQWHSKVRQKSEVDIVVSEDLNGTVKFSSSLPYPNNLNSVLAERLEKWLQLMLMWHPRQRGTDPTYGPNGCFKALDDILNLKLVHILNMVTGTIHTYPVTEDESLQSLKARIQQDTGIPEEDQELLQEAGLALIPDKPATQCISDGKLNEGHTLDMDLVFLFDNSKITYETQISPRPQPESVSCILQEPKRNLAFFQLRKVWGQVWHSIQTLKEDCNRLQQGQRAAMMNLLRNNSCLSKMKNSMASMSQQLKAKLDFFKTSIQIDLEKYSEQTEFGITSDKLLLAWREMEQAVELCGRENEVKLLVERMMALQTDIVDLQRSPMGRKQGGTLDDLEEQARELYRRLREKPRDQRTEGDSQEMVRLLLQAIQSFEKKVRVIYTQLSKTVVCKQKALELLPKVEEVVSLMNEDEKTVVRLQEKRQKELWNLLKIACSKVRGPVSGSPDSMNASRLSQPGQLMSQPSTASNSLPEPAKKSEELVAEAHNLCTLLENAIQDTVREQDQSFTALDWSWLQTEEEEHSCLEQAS
UniProt P37173, sequence (whole entry, looked up): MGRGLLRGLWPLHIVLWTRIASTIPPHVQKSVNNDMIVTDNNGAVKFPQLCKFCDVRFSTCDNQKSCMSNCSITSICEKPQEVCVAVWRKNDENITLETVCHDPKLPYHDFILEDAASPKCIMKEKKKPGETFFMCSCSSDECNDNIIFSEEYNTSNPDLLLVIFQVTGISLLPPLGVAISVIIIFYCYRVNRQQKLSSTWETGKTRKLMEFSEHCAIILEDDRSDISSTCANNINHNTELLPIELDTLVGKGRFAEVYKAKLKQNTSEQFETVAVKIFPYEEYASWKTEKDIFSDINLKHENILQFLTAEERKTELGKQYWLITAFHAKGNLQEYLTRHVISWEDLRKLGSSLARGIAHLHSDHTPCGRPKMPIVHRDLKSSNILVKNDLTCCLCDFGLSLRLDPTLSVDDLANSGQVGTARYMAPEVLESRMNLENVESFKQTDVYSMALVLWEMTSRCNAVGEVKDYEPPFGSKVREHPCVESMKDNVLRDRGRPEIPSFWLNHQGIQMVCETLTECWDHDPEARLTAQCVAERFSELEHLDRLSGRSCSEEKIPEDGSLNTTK
UniProt Q99759, sequence (whole entry, looked up): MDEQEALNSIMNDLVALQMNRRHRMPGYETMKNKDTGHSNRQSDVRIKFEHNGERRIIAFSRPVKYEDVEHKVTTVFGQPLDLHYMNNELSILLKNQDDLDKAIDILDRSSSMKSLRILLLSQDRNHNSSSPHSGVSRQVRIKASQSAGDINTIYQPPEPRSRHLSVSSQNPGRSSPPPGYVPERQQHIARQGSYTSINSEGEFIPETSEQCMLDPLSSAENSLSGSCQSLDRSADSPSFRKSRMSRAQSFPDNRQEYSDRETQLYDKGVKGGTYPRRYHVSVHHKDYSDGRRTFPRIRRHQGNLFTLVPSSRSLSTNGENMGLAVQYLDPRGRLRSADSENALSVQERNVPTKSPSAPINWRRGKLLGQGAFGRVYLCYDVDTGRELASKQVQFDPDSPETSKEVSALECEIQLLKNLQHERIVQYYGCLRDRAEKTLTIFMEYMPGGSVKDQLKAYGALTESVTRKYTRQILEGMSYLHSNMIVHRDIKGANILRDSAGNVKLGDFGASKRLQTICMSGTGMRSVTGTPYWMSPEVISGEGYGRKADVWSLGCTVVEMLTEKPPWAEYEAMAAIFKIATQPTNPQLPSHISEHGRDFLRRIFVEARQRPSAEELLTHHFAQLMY
UniProt Q13557, sequence (whole entry, looked up): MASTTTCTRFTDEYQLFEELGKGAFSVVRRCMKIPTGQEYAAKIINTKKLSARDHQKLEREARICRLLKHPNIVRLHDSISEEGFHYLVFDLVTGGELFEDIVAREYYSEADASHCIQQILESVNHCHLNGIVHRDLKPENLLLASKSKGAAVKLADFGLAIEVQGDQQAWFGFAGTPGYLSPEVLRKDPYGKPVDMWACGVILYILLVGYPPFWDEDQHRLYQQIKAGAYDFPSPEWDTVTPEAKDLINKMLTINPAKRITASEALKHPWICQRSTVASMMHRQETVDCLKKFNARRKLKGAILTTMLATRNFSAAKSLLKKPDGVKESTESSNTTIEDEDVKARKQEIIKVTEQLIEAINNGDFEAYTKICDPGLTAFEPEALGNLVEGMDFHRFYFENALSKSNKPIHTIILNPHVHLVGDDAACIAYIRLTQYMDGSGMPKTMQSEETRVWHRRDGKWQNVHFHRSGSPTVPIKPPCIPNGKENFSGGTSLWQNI
UniProt P07948, sequence (whole entry, looked up): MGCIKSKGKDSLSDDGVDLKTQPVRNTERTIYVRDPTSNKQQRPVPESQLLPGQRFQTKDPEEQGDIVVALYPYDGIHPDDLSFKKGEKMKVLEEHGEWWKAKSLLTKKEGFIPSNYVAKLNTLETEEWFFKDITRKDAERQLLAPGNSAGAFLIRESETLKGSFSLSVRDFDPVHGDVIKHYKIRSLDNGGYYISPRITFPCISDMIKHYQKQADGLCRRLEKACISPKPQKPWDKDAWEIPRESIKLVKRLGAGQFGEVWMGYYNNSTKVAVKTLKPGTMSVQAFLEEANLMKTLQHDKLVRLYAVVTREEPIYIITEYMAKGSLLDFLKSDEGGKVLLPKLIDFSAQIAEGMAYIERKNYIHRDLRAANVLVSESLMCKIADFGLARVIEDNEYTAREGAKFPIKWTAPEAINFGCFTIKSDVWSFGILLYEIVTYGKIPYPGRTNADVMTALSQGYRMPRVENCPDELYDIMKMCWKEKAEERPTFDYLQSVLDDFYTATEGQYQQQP
UniProt O95747, sequence (whole entry, looked up): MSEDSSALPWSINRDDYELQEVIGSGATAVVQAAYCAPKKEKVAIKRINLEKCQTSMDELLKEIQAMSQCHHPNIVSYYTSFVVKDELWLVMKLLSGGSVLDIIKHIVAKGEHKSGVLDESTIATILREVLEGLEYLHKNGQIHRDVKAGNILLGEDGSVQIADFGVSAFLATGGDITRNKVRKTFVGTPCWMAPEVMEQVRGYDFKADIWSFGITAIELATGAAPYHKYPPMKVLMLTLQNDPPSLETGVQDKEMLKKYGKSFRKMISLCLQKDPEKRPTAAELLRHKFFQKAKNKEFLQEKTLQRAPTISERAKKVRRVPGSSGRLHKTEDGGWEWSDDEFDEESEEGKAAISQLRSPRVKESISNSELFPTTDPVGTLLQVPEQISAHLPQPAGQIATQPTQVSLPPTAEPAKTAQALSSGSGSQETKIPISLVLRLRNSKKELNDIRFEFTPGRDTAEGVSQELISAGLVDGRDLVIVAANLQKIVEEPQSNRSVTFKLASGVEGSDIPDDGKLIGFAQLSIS
UniProt P36897, sequence (whole entry, looked up): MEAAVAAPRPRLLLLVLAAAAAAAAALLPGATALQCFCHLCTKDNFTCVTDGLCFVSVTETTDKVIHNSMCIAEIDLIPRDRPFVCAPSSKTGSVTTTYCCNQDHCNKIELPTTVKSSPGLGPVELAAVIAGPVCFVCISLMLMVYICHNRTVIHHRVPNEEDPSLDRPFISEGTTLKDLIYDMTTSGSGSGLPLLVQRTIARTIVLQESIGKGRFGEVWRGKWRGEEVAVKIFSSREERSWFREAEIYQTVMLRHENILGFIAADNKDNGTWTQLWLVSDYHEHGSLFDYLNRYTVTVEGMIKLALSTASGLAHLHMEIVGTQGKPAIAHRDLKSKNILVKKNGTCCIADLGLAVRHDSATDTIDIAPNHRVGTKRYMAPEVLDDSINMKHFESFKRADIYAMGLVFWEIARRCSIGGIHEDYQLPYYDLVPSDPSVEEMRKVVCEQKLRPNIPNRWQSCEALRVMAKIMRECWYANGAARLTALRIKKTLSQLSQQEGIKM

Block 1
Structure (SMILES): CCOc1ccc(Nc2c3c(nc4ccccc24)CCC3)cc1
Organism: Leishmania donovani
Endpoint: inhibition
observed = parasite growth; strain = DD8 amphotericin B-resistant; medium = intracellular amastigotes; concentration = 4 µM; value = 99% and 85% and 91% and 93% and 84%
observed = parasite killing; strain = DD8; medium = promastigotes; concentration = 0.66 µM; time = 48 h; value = 24% and 23% and 20%
observed = parasite growth; strain = DD8 amphotericin B-resistant; medium = intracellular amastigotes; concentration = 80 µM; value = 100%
observed = parasite growth; concentration = 20 µM; setting = intracellular, amastigote; value = 81%
strain = DD8 resistant line; medium = promastigotes; concentration = 66.66 µM; setting = resistance confirmation; value = 100%
observed = parasite growth; strain = DD8 amphotericin B-resistant; medium = intracellular amastigotes; concentration = 0.004 µM; value = 1% and 5% and 2%
observed = parasite growth; strain = DD8 amphotericin B-resistant; medium = promastigotes; concentration = 3.33 µM; value = 55% and 61% and 64% and 62%

Block 2
Cell line: HEK-293T-ACE2-TMPRSS2
Method: cell count
Concentration: concentration not given
Endpoint: viability
SMILES = C/C=C/Cn1c(=O)c2c(nc3n(CCCC)c(C)cn23)n(C)c1=O; value = 100%
SMILES = Cc1ccc(Nc2cc(C)nc(N3CCN(C(=O)c4ccco4)CC3)n2)cc1; value = 108%
SMILES = Cc1nc(C)c(C(=O)NC(C)c2cnn(-c3ccccc3C)c2C)s1 (stereo not drawn); value = 67%
SMILES = O=C(NC1CC(=O)N(CCCc2ccccc2)C1)c1ccsc1 (stereo not drawn); value = 113%
SMILES = Cc1ccc(C2NC(=O)N(CC(=O)NC3CCCCC3)C3=C2C(=O)OC3)cc1 (stereo not drawn); value = 76%
SMILES = C=C(C)C1Cc2c(ccc3c2O[C@@H]2COc4cc(OC)c(OC)cc4[C@@H]2C3=O)O1 (stereo partly drawn); value = 118%
SMILES = O=C(O)c1cc2ccc(O)cc2oc1=O; value = 101%
SMILES = COC(=O)c1cc(/C=C/C(=O)O)oc1C; value = 101%
SMILES = Cc1cc(C(=O)N2CCC3(CCCN(CCCc4ccccc4)C3=O)C2)n[nH]1 (stereo not drawn); value = 110%
SMILES = Cc1ccc(NC(=O)c2cc3cc(N(C)S(C)(=O)=O)ccc3s2)c(C)c1; value = 67%
SMILES = O=C(NC1CCN(Cc2ccccc2)CC1)c1cccc(Nc2cc(-c3ccc(F)cc3)ncn2)c1; value = 72%
SMILES = COc1ccc(-c2noc(N3CCC(C(=O)NCC4CCN(Cc5ccc(C)cc5)C4)CC3)n2)cc1 (stereo not drawn); value = 68%
SMILES = O=C(CCC(=O)N1CCN(c2nc3cccnc3s2)CC1)N1CCN(C(=O)c2ccco2)CC1; value = 116%
SMILES = CC(=O)c1cccc(NC(=O)c2cc3cc(N(C)S(=O)(=O)c4ccc(C)cc4)ccc3s2)c1; value = 70%
SMILES = CCC1Oc2ccc(S(=O)(=O)N3CCN(C(=O)c4ccc(C#N)cc4F)CC3)cc2NC1=O (stereo not drawn); value = 71%
SMILES = CC(=O)N1c2ccc(S(=O)(=O)N3CCN(CCOc4ccc(Cl)cc4)CC3)cc2CC1C (stereo not drawn); value = 65%

Block 3
Target: Diamine acetyltransferase 1 (Homo sapiens, UniProt P21673)
Mode: inhibitor
Concentration: 10 µM
Reference: control
Endpoint: remaining activity
Construct (P21673 1-171): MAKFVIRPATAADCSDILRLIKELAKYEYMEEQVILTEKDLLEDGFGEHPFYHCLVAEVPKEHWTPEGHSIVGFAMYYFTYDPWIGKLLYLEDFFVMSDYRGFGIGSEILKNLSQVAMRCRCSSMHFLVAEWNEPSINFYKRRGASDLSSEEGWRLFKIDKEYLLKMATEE
SMILES = O=c1cc(O)c2ccccc2o1; value = 103%
SMILES = CNC(=O)Oc1ccccc1OC(C)C; value = 104%
SMILES = NCCc1ccc(O)cc1; value = 102%
SMILES = C/C=C/C#CC#C/C=C/c1ccco1; value = 100%

Block 4
Structure (SMILES): O=C1NC(=O)c2c1c1c3ccccc3n3c1c1c2c2ccccc2n1[C@H]1CC[C@@H]3O1
Observed: enzyme activity
Mode: inhibitor
Concentration: 0.5 µM
Reference: control
Endpoint: remaining activity
target = STK11 (Homo sapiens, UniProt Q15831); value = 50.5%
target = STK10 (Homo sapiens, UniProt O94804); value = 9.25%
target = DAPK2 (Homo sapiens, UniProt Q9UIK4); value = 39.4%
target = STK39 (Homo sapiens, UniProt Q9UEW8); value = 88.3%
target = PRKCA (Homo sapiens, UniProt P17252); value = 13.9%
target = TGFBR2 (Homo sapiens, UniProt P37173); value = 70.3%
target = PRKACA (Homo sapiens, UniProt P17612); value = 44.7%
target = MAPK9 (Homo sapiens, UniProt P45984); value = 96.1%
target = Cyclin-dependent kinase 4, with cyclin D1 (CDK4, Homo sapiens, UniProt P11802); value = 11.2%
target = NEK2 (Homo sapiens, UniProt P51955); value = 93.8%
target = GRK3 (Homo sapiens, UniProt P35626); value = 101%
target = IKBKE (Homo sapiens, UniProt Q14164); value = 23.9%
target = CAMK2D (Homo sapiens, UniProt Q13557); value = 7.03%
target = CHEK2 (Homo sapiens, UniProt O96017); value = 13%
target = CAMKK2 (Homo sapiens, UniProt Q96RR4); value = 7.93%
target = TGFBR1 (Homo sapiens, UniProt P36897); value = 110%
target = DAPK1 (Homo sapiens, UniProt P53355); value = 32.7%
target = OXSR1 (Homo sapiens, UniProt O95747); value = 92.4%
target = IKBKB (Homo sapiens, UniProt O14920); value = 97.8%
target = Tyrosine-protein kinase Lyn, isoform B (LYN, Homo sapiens, UniProt P07948); value = 73.6%
target = MAP3K3 (Homo sapiens, UniProt Q99759); value = 18.4%
target = Cyclin-dependent kinase 5, with p25 (CDK5, Homo sapiens, UniProt Q00535); value = 28%
target = cGMP-dependent protein kinase 1, isoform beta (PRKG1, Homo sapiens, UniProt Q13976); value = 41.3%
target = Protein kinase C beta type, isoform beta-I (PRKCB, Homo sapiens, UniProt P05771); value = 22.5%

Excerpt of the above (block 4):
target = STK11 (Homo sapiens, UniProt Q15831); value = 50.5%
target = STK10 (Homo sapiens, UniProt O94804); value = 9.25%
target = DAPK2 (Homo sapiens, UniProt Q9UIK4); value = 39.4%
target = STK39 (Homo sapiens, UniProt Q9UEW8); value = 88.3%
target = PRKCA (Homo sapiens, UniProt P17252); value = 13.9%
